Measurements from different studies.
Parts stem from different laboratories: compare values within a part only.

Series 1 — method: protein-binding microarray; molecule type: double-stranded DNA, one strand shown; matrix: in vitro; tested at: not given; reading: higher = stronger binding; measurement: E-score
Target: Myc proto-oncogene protein, bHLH-zipper, MAX partner unstated (MYC, Homo sapiens, UniProt P01106, residues 368-449)
UniProt P01106, sequence (368-449, looked up): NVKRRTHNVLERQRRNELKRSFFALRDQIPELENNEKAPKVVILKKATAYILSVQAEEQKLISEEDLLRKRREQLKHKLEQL
Notes: k-mer, scored over probes, only values ≥0.25
ACGTGTGG: 0.443
AGCGTGCC: 0.353
CATCCATG: 0.25
CTCGAGGC: 0.289
AGTCACAT: 0.296
GCCGGACC: 0.275
AGGGTGGG: 0.279
AACCACAC: 0.306
CATGTACA: 0.307
CATGCTTC: 0.404
AAGGCATG: 0.372
ACGCGTGC: 0.44
CACGTGGG: 0.495
GCCCGCCC: 0.34

Series 2 — method: RNA Bind-n-Seq; molecule type: RNA; matrix: in vitro; tested at: 200 nM; notes: whole 134-nt RNA, ends assumed; added: 150 mM KCl; reference: input library; reading: higher = stronger binding; measurement: log2 enrichment
Target: Fragile X messenger ribonucleoprotein 1, C-terminal low-complexity region (Fmr1, Mus musculus, UniProt P35922)
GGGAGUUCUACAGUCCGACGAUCUCGGCUACACUGCCCGGAGAAUUCUCAAUGAGGAUGGCAGCCCUAACCUGGACUUCAAGCCUGAAGACCAGCCCCAUUUUGACAUCAAGGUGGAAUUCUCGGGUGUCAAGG: -0.0864
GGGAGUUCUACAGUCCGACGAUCCUCAAGUCCUGUGCUACACAUCGUAUGUACCGAAUCGGCCGGGCCGGCCGGGGAAAGUAUUAUGUUACGCCGUUCGGAUCUGCACUUCCAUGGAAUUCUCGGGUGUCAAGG: -0.429
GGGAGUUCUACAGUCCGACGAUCUAACUUUAGAGGAGGAUCUGAUGGAUAUGGCAGUGGACGUGGAUUUGGGGAUGGCUAUAAUGGGUAUGGCGGAGGACCUGGAGGUGGCAAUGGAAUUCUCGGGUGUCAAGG: 0.263
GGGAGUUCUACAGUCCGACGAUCUAACUUUAGAGGAGGAUCUGAUGGAUAUGGCAGUGGACGUGGAUUUGGGGAUGGCUACAAUGGGUAUGGAGGAGGACCUGGAGGUGGCAAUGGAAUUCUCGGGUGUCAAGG: 0.286
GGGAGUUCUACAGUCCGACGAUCUCUUCAGAGGCCCCACAGUAUCAAAUAUCCGCCUGGCUGGAUUAGAGUAUGUUCUGCACUUCACUGCACUGAAUGGGAAGAUUUACUUUCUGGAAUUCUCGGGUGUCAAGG: 0.00954
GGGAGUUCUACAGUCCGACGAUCUUCCUCAGGGUAGAACUGGAUGACUCAGACGUGUUCCAUGGUGAACCUGAACCUGAGGAGCUGCCUGGAGGUAAGGGCCCUGAACUGUCCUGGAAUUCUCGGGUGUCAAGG: -2.62
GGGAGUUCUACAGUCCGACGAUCUAACUUUAGAGGAGGAUCUGAUGGAUAUGGCAGUGGACGUGGAUUUGGGGAUGGCUAUAAUGGGUAUGGAGGAGGACCUGGAGUUGGCAAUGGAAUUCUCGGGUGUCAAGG: 0.16
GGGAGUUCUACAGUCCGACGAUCUCAAGUCCUGUGCUACACAUCGUAUGUACCGAAUCGGGAAGGGAAGGGGAAGGGGAAAGUAUUAUGUUACGCCGUUCGGAUCUGCACUUCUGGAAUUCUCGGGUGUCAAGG: 0.656
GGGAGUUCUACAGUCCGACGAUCAAGUCCUGUGCUACACAUCGUAUGUACCGAAUCGGGAGGGAAAAAAAGGGAAAGGGAAAGUAUUAUGUUACGCCGUUCGGAUCUGCACUUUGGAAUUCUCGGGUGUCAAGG: 0.485
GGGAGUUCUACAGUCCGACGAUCUCCUGUGCUACACAUCGUAUGUACCGAAUCGGGAAAAAAGGAAAAAAGGGGAAAAAAGGAAAGUAUUAUGUUACGCCGUUCGGAUCUGCAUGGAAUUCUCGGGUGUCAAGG: -0.497
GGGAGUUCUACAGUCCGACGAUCUAACUUUAGAGGAGGAUCUGAUGGAUAUGGCAGUGGACGUGGAUUUUGGGAUGGCUAUAAUGGGUAUGGAGGAGGACCUGGAGGUGGCAAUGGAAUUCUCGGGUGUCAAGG: 0.241
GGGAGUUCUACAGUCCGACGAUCAAGUCCUGUGCUACACAUCGUAUGUACCGAAUCGGGUGGGUUUUUUUGGGAAAGGGAAAGUAUUAUGUUACGCCGUUCGGAUCUGCACUUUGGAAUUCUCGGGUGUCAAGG: 0.428
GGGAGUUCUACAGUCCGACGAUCUCCUGUGCUACACAUCGUAUGUACCGAAUCGGGGCCCCCCGGCCCCCCGGGGCCCCCCGGAAAGUAUUAUGUUACGCCGUUCGGAUCUGCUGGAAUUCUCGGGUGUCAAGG: 0.101
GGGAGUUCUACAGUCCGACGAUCAAGUCCUGUGCUACACAUCGUAUGUACCGAAUCGGGAAAAAGGGAAAAAGGGAGGGAAAGUAUUAUGUUACGCCGUUCGGAUCUGCACUUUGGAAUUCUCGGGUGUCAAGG: 0.524

Series 3 — method: RNA Bind-n-Seq; molecule type: RNA; matrix: in vitro; tested at: 20 nM; notes: 6-mer, flanks averaged, single round; added: 150 mM KCl; reference: input library; reading: higher = stronger binding; measurement: 6-mer enrichment (R)
Target: TAR DNA-binding protein 43, full length, His tag (TARDBP, Homo sapiens, UniProt Q13148, residues 1-414)
CUCACU: 0.559
AGGAAA: 0.902
AGUUUU: 0.642
CACUCU: 0.574
CCAAAC: 0.619
UGUGAA: 1.06
AGGCAA: 0.889
CAGCCC: 0.669
UCAGGA: 0.852
CCUACU: 0.592
UUGAGC: 0.766
CCUGCG: 0.897
GCCCGA: 0.841
GCGCAU: 0.937
CUUAUU: 0.611
UGUAAA: 0.695
AAGGAA: 0.812
UGGUCC: 0.77
UUCGCC: 0.59

Series 4 — method: Spec-seq; molecule type: double-stranded DNA, one strand shown; matrix: in vitro; tested at: not given; notes: whole probe, mean of replicates; reference: not given; reading: lower = stronger binding; measurement: relative binding energy; all sequences stand within: GAGTCGTCTCGTCAGCAC … CCGTAGAGCACTCAGGTC
Target: Transcription factor SOX-2, HMG box (Sox2, Mus musculus, UniProt P48432, residues 41-119)
UniProt P48432, sequence (41-119, looked up): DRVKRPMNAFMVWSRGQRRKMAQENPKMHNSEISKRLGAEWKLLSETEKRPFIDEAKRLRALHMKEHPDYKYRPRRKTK
CATCTCC: 1.12 ln ratio
CATGTAA: 0.0727 ln ratio
TGGGGTT: 1.18 ln ratio
CATCCAC: 0.984 ln ratio
TCGAGTT: 1.13 ln ratio
CGGGGTT: 1.7 ln ratio
CATATGA: 0.00929 ln ratio
CATACAA: -1.21 ln ratio
CCATGTT: 0.47 ln ratio
CATATGC: 0.313 ln ratio
CATGCTG: 0.564 ln ratio
CATTTAA: -0.889 ln ratio
CCTTGTT: -1.12 ln ratio
CATGCGC: 0.437 ln ratio
CATGGGT: 0.145 ln ratio
ATGTGTT: -0.0471 ln ratio
CATCGGT: 0.678 ln ratio
GAGGGTT: 1.53 ln ratio

Series 5 — method: protein binding microarray; molecule type: double-stranded DNA, one strand shown; matrix: in vitro; tested at: not given; reference: not given; reading: higher = stronger binding; measurement: E-score
Target: Histone acetyltransferase KAT6A, winged helix 2, GST fusion (KAT6A, Homo sapiens, UniProt Q92794, residues 85-181)
Notes: 8-mer, flanks averaged, mean of 2 arrays, mostly near background
Target sequence (chain): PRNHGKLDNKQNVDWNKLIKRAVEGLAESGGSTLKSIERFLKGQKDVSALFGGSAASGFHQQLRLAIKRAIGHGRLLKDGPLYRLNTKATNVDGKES
AAGCAACG: 0.145
ACCCGACA: 0.151
GGGTGACC: 0.126
ATGTACGA: -0.27
CTATTTTA: -0.0981
GTCCTCAA: 0.116
CGGCCTTA: 0.176
CCAAGGTC: 0.00515
ATACAGAG: -0.0748
AATTTTGT: -0.013
CAAAATAA: 0.0153
GACAATGA: -0.158
TACCTTGA: 0.00177
AAGAGAAA: 0.0423
AACCGGGA: 0.0655
CCGCTGCG: 0.0966
GCACACAC: 0.0597
GGTAGTCA: -0.213
CGTGAAGA: 0.0241
AATTCGAT: 0.0891
CTCCGTAA: -0.094

Series 6 — method: aptamer microarray, sandwich; molecule type: DNA with 2'F-ANA; matrix: in vitro; tested at: 200 nM; added: Cy3 exosite-II aptamer, 400 nM; reading: higher = stronger binding; measurement: mean fluorescence intensity; sequence: GGTTGGTGTGGTTGG
Target: Prothrombin, mature alpha-thrombin (F2, Homo sapiens, UniProt P00734)
Notes: whole 15-mer aptamer, many near background
2'F-ANA at 1 4 5 6 7 10 11 14 15: 58.6 a.u.
2'F-ANA at 1 2 7 8 9 11 12 13 14: 67.1 a.u.
2'F-ANA at 1 6 7 8 9 10 15: 59.3 a.u.
2'F-ANA at 3 4 5 6 7 10 12 13 14 15: 66.9 a.u.
2'F-ANA at 3 4 5 6 9 10 13 14 15: 47.7 a.u.
2'F-ANA at 2 4 5 6 8 9 12 14 15: 46.8 a.u.
2'F-ANA at 6 8 13 14: 180 a.u.
2'F-ANA at 2 4 6 9 10 12 14 15: 64.3 a.u.
2'F-ANA at 1 5 7 12 14: 45.3 a.u.
2'F-ANA at 2 9 14 15: 149 a.u.
2'F-ANA at 3 4 11 12 13 14: 363 a.u.
2'F-ANA at 2 3 4 5 7 8 9 10 14 15: 72.9 a.u.
2'F-ANA at 5 10 13 14 15: 46 a.u.
2'F-ANA at 2 3 4 6 8 11 12 14 15: 245 a.u.
2'F-ANA at 1 2 3 4 6 8: 182 a.u.
2'F-ANA at 2 4 6 7 8 10 12: 129 a.u.
2'F-ANA at 2 3 4 12 13 14 15: 293 a.u.
2'F-ANA at 1 5 7 14: 42.6 a.u.
2'F-ANA at 3 4 7 14 15: 385 a.u.
2'F-ANA at 1 3 5 8 11 14: 47.8 a.u.
2'F-ANA at 4 6 7 12 14: 119 a.u.
2'F-ANA at 1 6 7 9 10 12 13 15: 64.6 a.u.

For quick reference, copied from above (series 4):
CATGCTG: 0.564 ln ratio
CATTTAA: -0.889 ln ratio
CCTTGTT: -1.12 ln ratio
CATGCGC: 0.437 ln ratio
CATGGGT: 0.145 ln ratio
ATGTGTT: -0.0471 ln ratio
CATCGGT: 0.678 ln ratio
